Results of several laboratories.
A part holds a random share of what one study measured.
Sequence of UniProt P49336 (whole entry, looked up): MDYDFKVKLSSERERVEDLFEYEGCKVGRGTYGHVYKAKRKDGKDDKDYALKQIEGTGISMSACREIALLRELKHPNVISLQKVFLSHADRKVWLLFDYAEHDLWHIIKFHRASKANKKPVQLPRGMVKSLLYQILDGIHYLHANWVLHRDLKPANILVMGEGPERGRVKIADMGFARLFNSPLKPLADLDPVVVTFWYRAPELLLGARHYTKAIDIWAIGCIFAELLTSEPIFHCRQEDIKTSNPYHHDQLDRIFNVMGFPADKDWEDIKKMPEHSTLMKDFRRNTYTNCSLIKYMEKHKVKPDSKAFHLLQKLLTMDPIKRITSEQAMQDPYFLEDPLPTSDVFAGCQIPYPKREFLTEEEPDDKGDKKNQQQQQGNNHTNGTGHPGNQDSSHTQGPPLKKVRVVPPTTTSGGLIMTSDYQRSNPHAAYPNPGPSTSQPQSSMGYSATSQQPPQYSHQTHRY
Sequence of UniProt Q6XUX3 (whole entry, looked up): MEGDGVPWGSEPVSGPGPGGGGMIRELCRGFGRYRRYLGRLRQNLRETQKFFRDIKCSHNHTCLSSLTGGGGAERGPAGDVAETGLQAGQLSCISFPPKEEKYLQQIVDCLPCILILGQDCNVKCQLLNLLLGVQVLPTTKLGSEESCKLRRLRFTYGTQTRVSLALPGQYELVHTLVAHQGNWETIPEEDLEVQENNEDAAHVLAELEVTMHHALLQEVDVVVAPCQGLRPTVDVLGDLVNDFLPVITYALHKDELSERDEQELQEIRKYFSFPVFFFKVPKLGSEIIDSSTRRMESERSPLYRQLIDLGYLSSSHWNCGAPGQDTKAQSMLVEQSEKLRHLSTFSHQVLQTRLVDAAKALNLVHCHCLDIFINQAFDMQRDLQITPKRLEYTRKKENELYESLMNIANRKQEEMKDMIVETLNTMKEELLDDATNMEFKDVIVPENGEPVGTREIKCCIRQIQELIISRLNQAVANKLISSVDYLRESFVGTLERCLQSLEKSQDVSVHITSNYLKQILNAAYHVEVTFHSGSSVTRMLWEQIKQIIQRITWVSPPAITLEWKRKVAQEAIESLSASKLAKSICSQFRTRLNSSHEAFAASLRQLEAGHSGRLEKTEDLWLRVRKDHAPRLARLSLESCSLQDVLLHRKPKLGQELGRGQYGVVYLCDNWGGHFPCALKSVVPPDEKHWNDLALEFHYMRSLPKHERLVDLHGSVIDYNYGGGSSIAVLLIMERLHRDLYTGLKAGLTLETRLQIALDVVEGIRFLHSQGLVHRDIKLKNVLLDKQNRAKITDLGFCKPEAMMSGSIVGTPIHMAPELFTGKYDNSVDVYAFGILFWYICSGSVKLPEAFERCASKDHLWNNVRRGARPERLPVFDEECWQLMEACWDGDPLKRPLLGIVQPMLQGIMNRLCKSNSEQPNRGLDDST
Sequence of UniProt O94804 (whole entry, looked up): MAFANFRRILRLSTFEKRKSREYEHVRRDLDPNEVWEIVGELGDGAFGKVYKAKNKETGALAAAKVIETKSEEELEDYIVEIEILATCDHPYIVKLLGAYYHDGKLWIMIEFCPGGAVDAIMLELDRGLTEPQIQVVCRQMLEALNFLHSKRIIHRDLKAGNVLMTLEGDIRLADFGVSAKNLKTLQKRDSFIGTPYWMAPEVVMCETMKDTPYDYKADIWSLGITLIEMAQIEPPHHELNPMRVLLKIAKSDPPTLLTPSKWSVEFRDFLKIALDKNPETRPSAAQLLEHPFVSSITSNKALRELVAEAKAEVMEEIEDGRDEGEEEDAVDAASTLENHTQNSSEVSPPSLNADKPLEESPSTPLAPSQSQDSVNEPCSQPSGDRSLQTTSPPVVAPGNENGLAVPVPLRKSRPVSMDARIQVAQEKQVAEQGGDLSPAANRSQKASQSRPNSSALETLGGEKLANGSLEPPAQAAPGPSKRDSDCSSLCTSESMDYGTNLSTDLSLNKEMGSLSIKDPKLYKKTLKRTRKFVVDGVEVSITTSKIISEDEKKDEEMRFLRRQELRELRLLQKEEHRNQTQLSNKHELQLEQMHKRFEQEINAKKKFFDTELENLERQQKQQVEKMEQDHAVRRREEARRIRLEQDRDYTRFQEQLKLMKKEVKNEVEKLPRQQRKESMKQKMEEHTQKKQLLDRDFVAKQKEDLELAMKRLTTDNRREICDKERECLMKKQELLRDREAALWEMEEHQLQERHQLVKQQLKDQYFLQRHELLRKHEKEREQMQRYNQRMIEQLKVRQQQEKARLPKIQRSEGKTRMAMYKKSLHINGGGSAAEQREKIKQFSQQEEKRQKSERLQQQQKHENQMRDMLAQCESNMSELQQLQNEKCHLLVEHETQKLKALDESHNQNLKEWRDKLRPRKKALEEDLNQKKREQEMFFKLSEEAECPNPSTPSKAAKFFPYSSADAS

Study 1
Cell line: mouse MPNST tumor cells
Method: high-content immunofluorescence imaging
Measured: nuclear SOX9
Concentration: 10 µM
Time: 12 h
Setting: mean of 2 replicates
Relative to: DMSO control
Reading: higher = more nuclear SOX9
Structure (SMILES)	nuclear SOX9 intensity
CNc1cc2[nH]c(=O)n(-c3ccc(NC(=O)NS(=O)(=O)c4ccc(Cl)s4)cc3)c(=O)c2cc1F	97.4 % of DMSO
C/C(=N\NC(=O)C1C(=O)NCC1c1ccccc1)c1cccc(Br)c1 (stereo not drawn)	88.6 % of DMSO
CNc1cc2c(Nc3cccc(Br)c3)ncnc2cn1	98.1 % of DMSO

Study 2
Structure (SMILES): CCCCN(CCCC)C(=O)CN1C[C@@H](c2cc(OC)c3c(c2)OCO3)[C@H](C(=O)O)[C@H]1CC(C)(C)CCC
Effect on: cell-free assay
Method: competition with immobilised ligand
Concentration: 1 µM
target	remaining binding
FLT3 (Homo sapiens, UniProt P36888, D835V/ITD)	97.4%
DSTYK (Homo sapiens, UniProt Q6XUX3)	99.7%
CDK8 (Homo sapiens, UniProt P49336)	78%
STK10 (Homo sapiens, UniProt O94804)	82.4%

Study 3
Host: mouse
Medium: microsomes or S9
Concentration: 2 µM
Time: 0.5 h
Structure (SMILES)	remaining compound [%]
COc1ccc(OC)c(NC(=O)c2cc(S(=O)(=O)N3CCC(C)CC3)c(C)n2C)c1	2.77
COc1cc(OC)c(-c2[nH]nc3c2C(=O)CCC3)cc1OC	27.1
Cc1cc(OCC(=O)N(C(C)C)C(C)C)ccc1Cl	0.0857
CN(C)CCCC(C#N)c1cccc2ccccc12 (stereo not drawn)	6.28

Study 4
Cell line: A-375
Concentration: 100 µM
Time: 36 h
SMILES	viability
CC[C@H]1OC(=O)[C@H](C)[C@@H](O[C@H]2C[C@@](C)(OC)[C@@H](O)[C@H](C)O2)[C@H](C)[C@@H](O[C@@H]2O[C@H](C)C[C@H](N(C)C)[C@H]2O)[C@](C)(O)C[C@@H](C)CN(C)[C@H](C)[C@@H](O)[C@]1(C)O	89.3%
CNC1(C)C2CCC(C2)C1(C)C (stereo not drawn)	93.3%
CNCCC=C1c2ccccc2CCc2ccccc21	-0.834%
CC[C@H](C)C(=O)O[C@H]1C[C@@H](C)C=C2C=C[C@H](C)[C@H](CC[C@@H]3C[C@@H](O)CC(=O)O3)[C@H]21	35%

Study 5
Target: Serine/threonine-protein kinase pim-1 (PIM1, Homo sapiens, UniProt P11309)
Sequence of UniProt P11309 (whole entry, looked up): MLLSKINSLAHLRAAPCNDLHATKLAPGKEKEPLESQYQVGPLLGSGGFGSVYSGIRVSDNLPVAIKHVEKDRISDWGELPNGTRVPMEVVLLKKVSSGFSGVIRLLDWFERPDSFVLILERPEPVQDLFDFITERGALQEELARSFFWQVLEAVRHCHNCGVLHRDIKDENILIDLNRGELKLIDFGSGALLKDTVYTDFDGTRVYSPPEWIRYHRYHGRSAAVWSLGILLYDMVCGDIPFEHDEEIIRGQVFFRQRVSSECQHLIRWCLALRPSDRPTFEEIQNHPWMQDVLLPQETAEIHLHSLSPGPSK
Effect on: enzyme activity
Mode: inhibitor
Concentration: 0.5 µM
Relative to: control
SMILES	remaining activity
Cn1sc(=O)n(Cc2ccccc2)c1=O	93%
CNC(=O)c1cc(Oc2ccc(NC(=O)Nc3ccc(Cl)c(C(F)(F)F)c3)cc2)ccn1	97%
Cc1ccc(Nc2nccc(N(C)c3ccc4c(C)n(C)nc4c3)n2)cc1S(N)(=O)=O	100%
Cc1cccc(-c2[nH]c(C(C)(C)C)nc2-c2ccc3c(c2)OCO3)n1	100%
COc1ccc(C(=O)Nc2sc3c(c2C(N)=O)CCCC3)cc1OC	98.9%
O=C1NC(=O)C(c2cn(CCCO)c3ncccc23)=C1c1cnccn1	43.9%
Cn1c2ccccc2c2c3c(c4c5ccccc5n(CCC#N)c4c21)CNC3=O	36.1%
C#Cc1cccc(Nc2ncnc3cc(OCCOC)c(OCCOC)cc23)c1	97%
Nc1[nH]nc2nc3ccccc3nc12	94%
CN(C)c1ccc(C=C2C(=O)Nc3ccccc32)cc1	101%
O=C(Nc1cccc(Nc2cc(Nc3cccc(C(F)(F)F)c3)ncn2)c1)C1CC1	104%
Nc1ccc2ncnc(NCCc3ccc(Oc4ccccc4)cc3)c2c1	102%
CC(C)[C@H](CO)Nc1nc(Nc2cc(N)cc(Cl)c2)c2ncn(C(C)C)c2n1	98%
COc1cc2ncnc(Nc3ccc(Oc4ccccc4)cc3)c2cc1OC	102%

Mixed results
SMILES	method	host	dose	setting	endpoint	value
CC(C)n1cnc(-c2ccc(F)cc2)c1-c1ncc(C(=O)Nc2ccc(N3CCN(C)CC3)cc2)[nH]1	phase 2a clinical trial	patients with idiopathic pulmonary fibrosis	60 mg once daily	without standard of care	patients with liver injury	0%

A few entries again (study 2):
target	remaining binding
DSTYK (Homo sapiens, UniProt Q6XUX3)	99.7%
STK10 (Homo sapiens, UniProt O94804)	82.4%
CDK8 (Homo sapiens, UniProt P49336)	78%
FLT3 (Homo sapiens, UniProt P36888, D835V/ITD)	97.4%
